Assay results from different studies.
Numbered parts are unrelated; each lists some results of a single study.
Sequence of UniProt P42680 (whole entry, looked up): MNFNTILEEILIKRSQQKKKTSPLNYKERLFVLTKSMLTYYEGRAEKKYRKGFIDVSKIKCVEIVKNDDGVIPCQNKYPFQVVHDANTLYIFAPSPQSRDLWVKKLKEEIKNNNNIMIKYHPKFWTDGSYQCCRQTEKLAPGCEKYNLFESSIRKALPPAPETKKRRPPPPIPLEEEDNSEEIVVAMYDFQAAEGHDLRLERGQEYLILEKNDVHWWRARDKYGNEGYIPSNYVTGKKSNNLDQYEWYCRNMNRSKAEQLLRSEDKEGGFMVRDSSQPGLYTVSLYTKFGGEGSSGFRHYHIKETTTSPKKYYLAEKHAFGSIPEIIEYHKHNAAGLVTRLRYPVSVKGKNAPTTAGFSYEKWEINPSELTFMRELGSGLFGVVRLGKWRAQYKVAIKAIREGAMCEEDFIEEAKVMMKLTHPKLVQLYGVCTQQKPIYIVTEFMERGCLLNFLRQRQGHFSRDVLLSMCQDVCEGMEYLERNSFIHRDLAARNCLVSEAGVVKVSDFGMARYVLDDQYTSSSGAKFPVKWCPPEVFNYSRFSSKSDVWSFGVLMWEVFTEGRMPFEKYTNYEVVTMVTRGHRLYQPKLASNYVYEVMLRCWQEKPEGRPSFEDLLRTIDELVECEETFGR
Sequence of UniProt Q13882 (whole entry, looked up): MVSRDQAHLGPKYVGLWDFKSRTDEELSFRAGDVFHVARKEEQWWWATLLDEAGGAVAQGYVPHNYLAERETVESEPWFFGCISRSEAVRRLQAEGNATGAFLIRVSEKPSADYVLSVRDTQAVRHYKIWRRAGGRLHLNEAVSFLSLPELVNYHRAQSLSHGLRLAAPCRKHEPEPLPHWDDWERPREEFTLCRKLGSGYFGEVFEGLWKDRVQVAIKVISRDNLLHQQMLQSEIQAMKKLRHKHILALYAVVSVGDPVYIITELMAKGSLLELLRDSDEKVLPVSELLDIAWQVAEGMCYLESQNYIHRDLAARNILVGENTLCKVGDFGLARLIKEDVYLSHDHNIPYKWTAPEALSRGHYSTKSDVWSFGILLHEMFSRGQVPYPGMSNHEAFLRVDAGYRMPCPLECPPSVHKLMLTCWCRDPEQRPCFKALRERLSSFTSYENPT
Sequence of UniProt Q9HBY8 (whole entry, looked up): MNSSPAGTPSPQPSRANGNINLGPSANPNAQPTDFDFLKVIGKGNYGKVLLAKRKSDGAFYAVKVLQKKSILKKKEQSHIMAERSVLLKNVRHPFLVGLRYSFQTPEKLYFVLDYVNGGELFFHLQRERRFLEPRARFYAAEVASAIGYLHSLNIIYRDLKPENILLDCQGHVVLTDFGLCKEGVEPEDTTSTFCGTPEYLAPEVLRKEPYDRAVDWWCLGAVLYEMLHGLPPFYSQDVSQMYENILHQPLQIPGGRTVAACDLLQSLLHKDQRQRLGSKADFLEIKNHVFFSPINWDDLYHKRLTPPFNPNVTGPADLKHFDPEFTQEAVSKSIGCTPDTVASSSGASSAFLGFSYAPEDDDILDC
Sequence of UniProt P27361 (whole entry, looked up): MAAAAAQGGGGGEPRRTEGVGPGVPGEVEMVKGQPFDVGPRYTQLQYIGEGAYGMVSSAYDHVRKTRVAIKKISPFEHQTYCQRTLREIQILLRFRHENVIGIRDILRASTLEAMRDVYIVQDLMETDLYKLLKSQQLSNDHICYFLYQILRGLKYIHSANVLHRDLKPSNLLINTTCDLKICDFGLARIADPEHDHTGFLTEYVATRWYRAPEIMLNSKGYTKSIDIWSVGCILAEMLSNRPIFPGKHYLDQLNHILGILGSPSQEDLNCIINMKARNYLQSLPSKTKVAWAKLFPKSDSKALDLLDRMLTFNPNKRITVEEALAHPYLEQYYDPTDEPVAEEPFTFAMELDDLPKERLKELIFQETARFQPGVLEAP
Sequence of UniProt P49674 (whole entry, looked up): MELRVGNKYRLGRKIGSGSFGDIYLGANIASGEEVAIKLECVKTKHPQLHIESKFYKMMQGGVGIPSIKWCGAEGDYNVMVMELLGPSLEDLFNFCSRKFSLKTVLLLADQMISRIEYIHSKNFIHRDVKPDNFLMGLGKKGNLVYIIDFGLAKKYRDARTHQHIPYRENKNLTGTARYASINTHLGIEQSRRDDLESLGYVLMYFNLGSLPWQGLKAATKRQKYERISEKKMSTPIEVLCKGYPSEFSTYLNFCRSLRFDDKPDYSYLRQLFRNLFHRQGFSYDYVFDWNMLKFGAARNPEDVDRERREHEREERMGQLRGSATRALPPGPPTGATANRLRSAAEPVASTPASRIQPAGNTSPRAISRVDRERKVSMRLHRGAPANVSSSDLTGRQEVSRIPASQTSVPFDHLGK
Sequence of UniProt P31152 (whole entry, looked up): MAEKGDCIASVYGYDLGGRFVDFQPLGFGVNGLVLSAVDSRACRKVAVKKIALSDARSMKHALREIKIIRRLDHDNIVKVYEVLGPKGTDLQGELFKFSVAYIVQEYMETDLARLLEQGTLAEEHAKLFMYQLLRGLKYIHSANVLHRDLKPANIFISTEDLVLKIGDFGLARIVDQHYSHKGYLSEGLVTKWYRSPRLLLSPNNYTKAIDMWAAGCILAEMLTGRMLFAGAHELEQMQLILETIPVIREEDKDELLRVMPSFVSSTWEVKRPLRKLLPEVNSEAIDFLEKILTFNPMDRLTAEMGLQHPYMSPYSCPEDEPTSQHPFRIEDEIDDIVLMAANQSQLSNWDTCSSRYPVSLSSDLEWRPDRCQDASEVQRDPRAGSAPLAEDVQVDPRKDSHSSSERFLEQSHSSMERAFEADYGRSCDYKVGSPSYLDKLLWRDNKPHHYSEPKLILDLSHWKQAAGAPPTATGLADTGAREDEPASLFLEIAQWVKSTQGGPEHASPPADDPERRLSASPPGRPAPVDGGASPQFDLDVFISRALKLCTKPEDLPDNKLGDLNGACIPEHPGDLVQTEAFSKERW
Sequence of UniProt Q06418 (whole entry, looked up): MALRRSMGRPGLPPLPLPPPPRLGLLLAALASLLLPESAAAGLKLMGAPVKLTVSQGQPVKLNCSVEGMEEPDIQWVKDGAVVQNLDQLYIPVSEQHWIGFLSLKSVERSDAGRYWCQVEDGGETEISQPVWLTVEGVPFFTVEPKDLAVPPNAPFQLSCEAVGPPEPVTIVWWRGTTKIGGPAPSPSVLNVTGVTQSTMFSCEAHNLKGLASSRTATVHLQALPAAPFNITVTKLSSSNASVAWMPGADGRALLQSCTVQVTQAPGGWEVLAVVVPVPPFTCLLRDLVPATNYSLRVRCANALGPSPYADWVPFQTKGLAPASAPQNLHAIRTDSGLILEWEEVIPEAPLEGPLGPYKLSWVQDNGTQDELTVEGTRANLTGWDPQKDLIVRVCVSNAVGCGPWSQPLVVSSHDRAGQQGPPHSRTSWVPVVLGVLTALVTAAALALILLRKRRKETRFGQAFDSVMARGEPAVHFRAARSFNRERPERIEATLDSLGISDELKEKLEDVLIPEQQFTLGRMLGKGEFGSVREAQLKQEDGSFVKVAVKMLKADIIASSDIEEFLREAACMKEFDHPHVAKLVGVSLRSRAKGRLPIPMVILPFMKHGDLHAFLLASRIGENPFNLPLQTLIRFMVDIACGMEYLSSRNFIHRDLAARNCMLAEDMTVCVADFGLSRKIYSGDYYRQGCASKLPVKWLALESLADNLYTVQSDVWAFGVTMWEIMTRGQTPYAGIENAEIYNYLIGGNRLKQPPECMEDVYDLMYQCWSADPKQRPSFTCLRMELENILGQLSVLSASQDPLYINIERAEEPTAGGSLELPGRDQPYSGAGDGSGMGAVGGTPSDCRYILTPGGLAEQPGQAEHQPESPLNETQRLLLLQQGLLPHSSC
Sequence of UniProt Q96SB4 (whole entry, looked up): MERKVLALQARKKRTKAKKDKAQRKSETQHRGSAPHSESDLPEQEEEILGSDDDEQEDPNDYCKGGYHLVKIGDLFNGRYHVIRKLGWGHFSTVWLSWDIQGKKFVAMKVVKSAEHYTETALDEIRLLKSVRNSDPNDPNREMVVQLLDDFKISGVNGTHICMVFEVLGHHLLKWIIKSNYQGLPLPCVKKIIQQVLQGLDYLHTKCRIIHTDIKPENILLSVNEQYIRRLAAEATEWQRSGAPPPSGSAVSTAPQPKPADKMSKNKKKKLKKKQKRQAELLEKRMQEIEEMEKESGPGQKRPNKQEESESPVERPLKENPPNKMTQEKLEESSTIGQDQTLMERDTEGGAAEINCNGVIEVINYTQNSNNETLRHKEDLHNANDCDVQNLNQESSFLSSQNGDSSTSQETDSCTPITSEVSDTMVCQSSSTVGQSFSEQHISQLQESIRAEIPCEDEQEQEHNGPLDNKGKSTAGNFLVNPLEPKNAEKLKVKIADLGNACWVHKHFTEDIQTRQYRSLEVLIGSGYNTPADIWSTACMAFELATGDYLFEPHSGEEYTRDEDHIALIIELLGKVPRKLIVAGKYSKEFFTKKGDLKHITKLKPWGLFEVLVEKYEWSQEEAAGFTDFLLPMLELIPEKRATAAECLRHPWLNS
Sequence of UniProt P36894 (whole entry, looked up): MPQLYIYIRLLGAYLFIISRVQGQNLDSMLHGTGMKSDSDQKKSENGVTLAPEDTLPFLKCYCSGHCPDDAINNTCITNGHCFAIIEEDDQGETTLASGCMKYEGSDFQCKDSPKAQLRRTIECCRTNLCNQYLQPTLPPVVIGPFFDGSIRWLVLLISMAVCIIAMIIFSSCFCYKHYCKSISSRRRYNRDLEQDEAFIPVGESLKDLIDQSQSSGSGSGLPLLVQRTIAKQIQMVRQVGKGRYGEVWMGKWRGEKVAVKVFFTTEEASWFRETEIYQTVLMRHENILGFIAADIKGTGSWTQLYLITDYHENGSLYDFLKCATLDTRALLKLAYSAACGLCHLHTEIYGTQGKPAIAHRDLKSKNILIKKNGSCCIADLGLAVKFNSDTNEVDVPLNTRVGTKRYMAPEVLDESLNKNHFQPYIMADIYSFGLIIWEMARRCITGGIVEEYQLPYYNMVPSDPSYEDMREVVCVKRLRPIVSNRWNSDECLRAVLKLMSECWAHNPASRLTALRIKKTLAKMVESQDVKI

Series 1
SMILES: CCN(CC)CCNC(=O)c1c(C)[nH]c(/C=C2\C(=O)Nc3ccc(F)cc32)c1C
Read-out: enzyme activity
Mode: inhibitor
Tested at: 0.5 µM
Reference: control
Quantity: remaining activity
CSNK1E (Homo sapiens, UniProt P49674): 46.9%
TYRO3 (Homo sapiens, UniProt Q06418): 28.3%
TEC (Homo sapiens, UniProt P42680): 94.8%
SGK2 (Homo sapiens, UniProt Q9HBY8): 93.2%
SRPK1 (Homo sapiens, UniProt Q96SB4): 97%
PRKCQ (Homo sapiens, UniProt Q04759): 63.5%

Series 2
SMILES: O=S(=O)(NC1CCC(c2cc(F)ccc2F)(S(=O)(=O)c2ccc(Cl)cc2)CC1)C(F)(F)F (centres unmarked)
Technique: competition with immobilised ligand
Tested at: 1 µM
Quantity: remaining binding
PRPF4B (Homo sapiens, UniProt Q13523); cell-free assay: 100%
BMPR1A (Homo sapiens, UniProt P36894); binding: 100%
PTK6 (Homo sapiens, UniProt Q13882); cell-free assay: 95%
MAPK3 (Homo sapiens, UniProt P27361); cell-free assay: 100%
MAPK4 (Homo sapiens, UniProt P31152); cell-free assay: 95%
TEC (Homo sapiens, UniProt P42680); binding: 100%

Other studies, line by line
TTC7B (Homo sapiens, UniProt Q86TV6)  cross-linked residues (HYCC1 (Homo sapiens, UniProt Q9BYI3); cross-linking MS; cell fractions; with: DSSO): K427 to Y272
CCC[C@@H]1NC(=O)CSC[C@@H](C(=O)OCC)N(C)C(=O)[C@H](CC(C)C)NC(=O)[C@@H](C)N(C)C(=O)[C@H](CC(C)C)NC(=O)[C@H](C)N(C)C(=O)[C@@H]2CCCN2C(=O)[C@H](CC(C)C)NC(=O)CN(C)C1=O  logD (hydrocarbon/water): 0.0216
RTRAF (Homo sapiens, UniProt Q9Y224)  interaction screen (RTCB (Homo sapiens, UniProt Q9Y3I0); cross-linking MS; hits only): cross-linked
UQCC2 (Homo sapiens, UniProt Q9BRT2)  cross-linked residues (UQCC1 (Homo sapiens, UniProt Q9NVA1); cross-linking MS; cell fractions; with: DSSO): K71 to K288
RANBP9 (Homo sapiens, UniProt Q96S59)  cross-linked residues (GID8 (Homo sapiens, UniProt Q9NWU2); cross-linking MS; cell fractions; with: DSSO): K405 to K48

For quick reference, copied from above (series 2):
MAPK3 (Homo sapiens, UniProt P27361); cell-free assay: 100%
MAPK4 (Homo sapiens, UniProt P31152); cell-free assay: 95%
TEC (Homo sapiens, UniProt P42680); binding: 100%
